# Results of several laboratories.
# Each line is one published result; not all experiments were run side by side. “And” joins repeats or separate records; there may be more than shown. ± marks the error that the study gave.
Compound,cell line,test,conditions,scale,quantity,value
C1N2CN3CN1CP(C2)C3.COc1ccc(C([O-])=CC(=O)c2ccc(C(C)(C)C)cc2)cc1.Cc1ccc(C(C)C)cc1.[Ru+2],HL-60,,,reference: dark IC50 over light IC50,phototoxicity index,1
O=c1cc(-c2ccc(O)cc2)oc2cc(O)cc(O)c12,SH-SY5Y Aβ-GFP cells,"ROS reduction, CellROX",,,EC50,6.8 µM
CC(C)(C)C(=O)OCOP(=O)(OCOC(=O)C(C)(C)C)C1CCCN(O)C1=O (stereo not drawn),U-251,,,,log GI50,-6.47 log M
COc1ccc(NC(=O)c2ccc3[nH]c(-c4ccc(N(C)C)cc4)nc3c2)cn1,HCT116,IncuCyte,"concentration not given, 12 (unit not given)",,PI-positive cells,40.9 count and 25.8 count and 17 count
O=C(C[Se]C(=O)C12CC3CC(CC(C3)C1)C2)Nc1cccc(C(F)(F)F)c1,NCI60 CNS subpanel,NCI60 five-dose screen,,,CC50,15.3 µM
CC(C)[C@H](NC(=O)[C@H](CCCNC(=N)N)NC(=O)[C@@H]1CCCN1C(=O)[C@@H](NC(=O)[C@H](C)NC(=O)[C@H](Cc1ccc(O)cc1)NC(=O)[C@H](CCC(N)=O)NC(=O)[C@H](CCCCN)NC(=O)[C@H](CCCNC(=N)N)NC(=O)[C@@H]1CCCN1C(=O)[C@H](CCC(=O)O)NC(=O)[C@@H](NC(=O)[C@H](C)N)[C@@H](C)O)[C@@H](C)O)C(=O)N[C@@H](Cc1ccccc1)C(=O)N[C@@H](Cc1c[nH]c2ccccc12)C(=O)N[C@H](C(=O)N[C@@H](CC(=O)O)C(=O)N[C@@H](C)C(=O)N1CCC[C@H]1C(=O)NCC(=O)NCCOCCOCCOCCOCCOCCOCCOCCOCCOCCOCCOCCOCCC(=O)N[C@@H](CS)C(N)=O)[C@@H](C)O,Huh-7 liver cancer,phage binding,,reference: targeting over control phage,selectivity ratio,210 ± 53
O=C(O)c1ccc(-c2nc(-c3ccccc3Cl)c3sccn23)cc1,HEL,flow cytometry,0.1 mM,,CD41-positive cells,65%
COc1ccccc1-c1ccncc1C(=O)Nc1nnc(OCc2ccc(Cl)cc2)s1,HCT-116 BRCA2 wild-type,,1 µM,reference: untreated,colony survival,97.3%
O=C(C[Se]C(=O)c1ccc2ccccc2c1)Nc1cccc(C(F)(F)F)c1,NCI60 CNS subpanel,NCI60 five-dose screen,,,CC50,7.79 µM

# Repeated from above:
Compound,cell line,test,conditions,scale,quantity,value
C1N2CN3CN1CP(C2)C3.COc1ccc(C([O-])=CC(=O)c2ccc(C(C)(C)C)cc2)cc1.Cc1ccc(C(C)C)cc1.[Ru+2],HL-60,,,reference: dark IC50 over light IC50,phototoxicity index,1
